Assay results from different studies.
Compare with care: the assays were run in different laboratories. ± gives the spread as reported.
Complement C3: Complement C3 (Homo sapiens, UniProt P01024)
Chain of UniProt P01024 (whole entry, looked up): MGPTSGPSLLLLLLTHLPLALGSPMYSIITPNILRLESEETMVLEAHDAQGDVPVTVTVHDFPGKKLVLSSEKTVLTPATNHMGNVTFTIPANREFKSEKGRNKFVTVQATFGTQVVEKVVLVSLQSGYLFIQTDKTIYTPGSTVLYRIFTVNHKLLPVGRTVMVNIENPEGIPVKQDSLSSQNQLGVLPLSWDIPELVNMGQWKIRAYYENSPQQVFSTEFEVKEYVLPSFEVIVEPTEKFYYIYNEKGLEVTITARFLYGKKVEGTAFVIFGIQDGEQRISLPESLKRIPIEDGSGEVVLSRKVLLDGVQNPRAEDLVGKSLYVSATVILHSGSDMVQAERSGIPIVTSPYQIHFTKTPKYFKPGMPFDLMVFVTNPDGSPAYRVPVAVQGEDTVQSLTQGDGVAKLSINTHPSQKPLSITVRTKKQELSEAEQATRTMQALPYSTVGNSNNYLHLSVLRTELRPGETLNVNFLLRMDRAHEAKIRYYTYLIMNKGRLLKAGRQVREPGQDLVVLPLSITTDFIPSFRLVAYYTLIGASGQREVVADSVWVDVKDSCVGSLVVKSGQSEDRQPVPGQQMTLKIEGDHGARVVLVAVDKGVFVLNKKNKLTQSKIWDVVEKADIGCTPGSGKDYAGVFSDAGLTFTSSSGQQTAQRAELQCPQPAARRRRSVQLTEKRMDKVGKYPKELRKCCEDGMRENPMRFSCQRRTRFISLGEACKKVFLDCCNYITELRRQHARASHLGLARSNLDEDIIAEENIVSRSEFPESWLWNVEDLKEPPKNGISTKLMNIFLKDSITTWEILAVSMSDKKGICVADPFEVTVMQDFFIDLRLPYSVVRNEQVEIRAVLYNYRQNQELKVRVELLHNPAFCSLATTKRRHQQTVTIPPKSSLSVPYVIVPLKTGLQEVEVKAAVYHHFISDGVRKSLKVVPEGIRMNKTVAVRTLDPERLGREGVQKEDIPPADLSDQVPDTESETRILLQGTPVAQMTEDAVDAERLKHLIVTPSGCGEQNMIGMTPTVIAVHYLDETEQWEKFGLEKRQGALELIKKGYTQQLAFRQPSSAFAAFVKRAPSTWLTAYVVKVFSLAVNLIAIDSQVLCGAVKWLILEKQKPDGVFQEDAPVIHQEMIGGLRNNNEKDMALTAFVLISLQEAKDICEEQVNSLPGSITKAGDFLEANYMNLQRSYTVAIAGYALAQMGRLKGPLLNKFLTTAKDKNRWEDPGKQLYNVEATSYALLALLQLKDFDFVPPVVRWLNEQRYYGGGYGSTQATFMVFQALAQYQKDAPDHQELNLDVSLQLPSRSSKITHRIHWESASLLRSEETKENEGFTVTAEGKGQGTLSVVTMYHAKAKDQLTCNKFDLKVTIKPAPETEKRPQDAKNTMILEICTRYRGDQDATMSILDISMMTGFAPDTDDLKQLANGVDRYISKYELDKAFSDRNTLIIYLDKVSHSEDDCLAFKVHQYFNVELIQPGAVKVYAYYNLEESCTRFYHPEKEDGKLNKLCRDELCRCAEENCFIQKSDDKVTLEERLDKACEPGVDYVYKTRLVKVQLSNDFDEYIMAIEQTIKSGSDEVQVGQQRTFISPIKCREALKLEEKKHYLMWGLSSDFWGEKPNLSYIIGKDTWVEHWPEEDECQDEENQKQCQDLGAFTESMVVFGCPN
lecA: PA-I galactophilic lectin (lecA, Pseudomonas aeruginosa, UniProt Q05097)
Chain of UniProt Q05097 (whole entry, looked up): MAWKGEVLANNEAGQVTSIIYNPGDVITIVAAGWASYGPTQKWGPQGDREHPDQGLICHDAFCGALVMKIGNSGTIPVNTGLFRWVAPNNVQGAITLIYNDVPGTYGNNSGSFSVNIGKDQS
Histone chaperone ASF1A: Histone chaperone ASF1A (Homo sapiens, UniProt Q9Y294)
Chain of UniProt Q9Y294 (whole entry, looked up): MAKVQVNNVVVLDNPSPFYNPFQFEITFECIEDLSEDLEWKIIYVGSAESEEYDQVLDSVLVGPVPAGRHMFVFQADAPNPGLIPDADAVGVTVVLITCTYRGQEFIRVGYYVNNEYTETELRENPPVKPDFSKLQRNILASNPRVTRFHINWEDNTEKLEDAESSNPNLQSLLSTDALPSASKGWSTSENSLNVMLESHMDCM
Chain of UniProt P62837 (whole entry, looked up): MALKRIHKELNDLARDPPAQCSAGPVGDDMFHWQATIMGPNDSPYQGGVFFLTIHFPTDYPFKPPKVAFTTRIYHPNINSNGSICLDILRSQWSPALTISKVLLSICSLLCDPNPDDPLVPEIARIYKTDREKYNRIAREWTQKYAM
Chain of UniProt P41595 (whole entry, looked up): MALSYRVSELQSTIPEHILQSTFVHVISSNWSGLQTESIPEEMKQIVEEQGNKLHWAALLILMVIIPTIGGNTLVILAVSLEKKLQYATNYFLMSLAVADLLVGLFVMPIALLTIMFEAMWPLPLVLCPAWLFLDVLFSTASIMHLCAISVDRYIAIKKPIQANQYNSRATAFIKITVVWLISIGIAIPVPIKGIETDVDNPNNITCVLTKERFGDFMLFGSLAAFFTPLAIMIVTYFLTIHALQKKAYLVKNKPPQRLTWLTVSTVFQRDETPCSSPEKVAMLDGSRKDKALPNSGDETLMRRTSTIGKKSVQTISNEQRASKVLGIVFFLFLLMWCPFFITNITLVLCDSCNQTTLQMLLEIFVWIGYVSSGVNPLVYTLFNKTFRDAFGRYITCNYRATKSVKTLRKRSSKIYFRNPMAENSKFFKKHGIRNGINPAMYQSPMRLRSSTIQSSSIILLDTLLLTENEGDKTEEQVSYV
Chain of UniProt Q9BY41 (whole entry, unmodified, looked up): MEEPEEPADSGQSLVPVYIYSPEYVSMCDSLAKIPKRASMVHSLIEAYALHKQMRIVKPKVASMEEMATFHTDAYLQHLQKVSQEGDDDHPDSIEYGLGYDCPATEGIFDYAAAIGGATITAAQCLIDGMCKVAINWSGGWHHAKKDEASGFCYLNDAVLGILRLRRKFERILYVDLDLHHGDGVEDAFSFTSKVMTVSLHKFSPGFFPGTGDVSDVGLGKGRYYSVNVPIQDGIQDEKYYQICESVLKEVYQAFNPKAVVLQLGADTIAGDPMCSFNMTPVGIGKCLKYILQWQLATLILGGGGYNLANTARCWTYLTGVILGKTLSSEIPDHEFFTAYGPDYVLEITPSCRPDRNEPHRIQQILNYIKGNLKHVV
Chain of UniProt P03951 (whole entry, looked up): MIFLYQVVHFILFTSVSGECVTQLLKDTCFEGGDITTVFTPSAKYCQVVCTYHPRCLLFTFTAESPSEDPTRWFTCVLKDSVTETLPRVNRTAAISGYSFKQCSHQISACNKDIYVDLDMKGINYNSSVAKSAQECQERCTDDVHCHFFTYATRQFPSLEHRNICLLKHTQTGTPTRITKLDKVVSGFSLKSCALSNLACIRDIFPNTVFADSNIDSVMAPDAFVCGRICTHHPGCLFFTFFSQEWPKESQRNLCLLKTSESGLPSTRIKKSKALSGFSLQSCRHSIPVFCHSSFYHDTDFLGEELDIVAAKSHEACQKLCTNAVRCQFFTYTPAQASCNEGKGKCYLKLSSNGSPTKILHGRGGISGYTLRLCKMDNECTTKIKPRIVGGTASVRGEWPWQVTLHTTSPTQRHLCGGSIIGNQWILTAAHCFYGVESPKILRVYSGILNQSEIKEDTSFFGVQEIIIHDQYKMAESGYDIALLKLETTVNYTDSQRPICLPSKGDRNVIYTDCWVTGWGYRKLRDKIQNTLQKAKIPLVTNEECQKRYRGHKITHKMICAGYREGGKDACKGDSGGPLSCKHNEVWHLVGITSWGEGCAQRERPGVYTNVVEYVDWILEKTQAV
Chain of UniProt Q7L0J3 (whole entry, looked up): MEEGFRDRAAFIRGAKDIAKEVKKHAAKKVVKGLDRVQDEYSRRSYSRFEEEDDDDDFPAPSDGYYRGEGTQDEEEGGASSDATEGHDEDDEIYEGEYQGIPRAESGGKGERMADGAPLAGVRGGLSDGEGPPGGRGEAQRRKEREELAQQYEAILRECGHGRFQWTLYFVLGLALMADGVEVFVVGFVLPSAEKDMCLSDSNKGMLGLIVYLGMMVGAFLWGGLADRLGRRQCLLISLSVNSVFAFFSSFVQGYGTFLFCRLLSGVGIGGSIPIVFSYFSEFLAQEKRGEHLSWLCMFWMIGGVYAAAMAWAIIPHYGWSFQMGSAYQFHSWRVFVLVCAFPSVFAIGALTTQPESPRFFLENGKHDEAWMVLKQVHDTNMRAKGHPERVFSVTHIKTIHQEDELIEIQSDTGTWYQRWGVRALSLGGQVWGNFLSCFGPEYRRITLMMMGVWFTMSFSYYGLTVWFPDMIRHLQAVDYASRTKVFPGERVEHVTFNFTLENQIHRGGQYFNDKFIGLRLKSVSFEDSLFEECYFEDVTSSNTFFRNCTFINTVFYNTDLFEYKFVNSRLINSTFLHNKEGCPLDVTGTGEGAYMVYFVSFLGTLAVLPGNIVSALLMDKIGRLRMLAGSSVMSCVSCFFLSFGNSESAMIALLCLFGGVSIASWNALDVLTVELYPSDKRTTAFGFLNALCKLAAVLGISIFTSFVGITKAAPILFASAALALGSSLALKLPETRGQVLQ
Chain of UniProt P08913 (whole entry, unmodified, looked up): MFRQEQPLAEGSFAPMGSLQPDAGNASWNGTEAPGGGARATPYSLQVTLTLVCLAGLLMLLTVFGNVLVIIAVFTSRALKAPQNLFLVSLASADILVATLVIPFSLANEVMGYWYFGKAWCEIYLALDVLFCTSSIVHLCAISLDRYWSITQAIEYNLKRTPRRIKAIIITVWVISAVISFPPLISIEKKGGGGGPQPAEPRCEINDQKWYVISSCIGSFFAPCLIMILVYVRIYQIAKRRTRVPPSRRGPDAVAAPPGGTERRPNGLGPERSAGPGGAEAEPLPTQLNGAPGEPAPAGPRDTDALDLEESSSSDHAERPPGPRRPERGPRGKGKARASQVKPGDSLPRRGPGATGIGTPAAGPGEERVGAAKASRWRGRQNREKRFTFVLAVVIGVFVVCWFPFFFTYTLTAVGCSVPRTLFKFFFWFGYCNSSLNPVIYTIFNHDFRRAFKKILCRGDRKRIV

With CCOc1ccc(C[C@@H]2NC(=O)[C@H](C(C)C)NC(=O)[C@@H](NC(=O)[C@@H](NC(C)=O)[C@@H](C)CC)CSSC[C@@H](C(=O)N[C@H](C(N)=O)[C@@H](C)O)NC(=O)[C@H](CCCNC(=N)N)NC(=O)[C@H](Cc3c[nH]cn3)NC(=O)[C@H](C)NC(=O)CNC(=O)[C@H](Cc3c[nH]c4ccccc34)NC(=O)[C@H](CC(=O)O)NC(=O)[C@H](CCC(N)=O)NC2=O)cc1 the −TΔS was 6.6 kcal/mol (Complement C3; ITC; pH 7.4, 25 °C).
For NC(=O)CN1C(=O)C(O)(CC(=O)c2cccc(N)c2)c2ccccc21 (stereo not drawn), the TΔS was -2.09 kcal/mol (uncharacterized protein (Leishmania donovani, UniProt A0A3Q8IA09); competitive ITC; added: aspartate 60 µM).
[N-]=[N+]=N[C@H]1[C@H](O)[C@@H](O)[C@H](n2cc(CO[C@@H]3O[C@H](CO)[C@H](O)[C@H](O)[C@H]3O)nn2)O[C@@H]1CO gave a -TΔS of 4.5 ± 0.9 kcal/mol (lecA; isothermal titration calorimetry; 298 K).
COc1ccc2c(c1)/C(=N/N=C/c1cccc(OCc3ccccc3)c1)C(=O)N2 gave a remaining activity of 58.7% (Amine oxidase [flavin-containing] A (MAOA, Homo sapiens, UniProt P21397); enzyme activity, inhibitor; 10 µM).
Under co-immunoprecipitation, Clc1ccc2ccc3[n+](c2c1)[Ir-3]12([c]4ccccc4-3)([c]3ccccc3-c3ccc4ccc(Cl)cc4[n+]31)[n+]1ccccc1-c1cccc[n+]12.F[P-](F)(F)(F)(F)F is recorded as “no effect” (Cyclin-dependent kinase 9, with cyclin T2 (CDK9, Homo sapiens, UniProt P50750); MDA-MB-231; 3 µM, 4 h).
The protein degradation of Cc1ncsc1-c1ccc(C(CO)NC(=O)C2CC(O)CN2C(=O)C(C(C)C)n2cc(-c3ccc(COc4c(-c5c(C)c(F)cc6[nH]ncc56)c(C5CC5)cc5c(N6CC7CC6CN7)nc(OC6CCOCC6)nc45)cc3)nn2)cc1 (stereo not drawn) is reported as 93% (GTPase KRas (KRAS, Homo sapiens, UniProt P01116, G12D); degrader; mouse PK-59 xenograft, tumour; intravenous, 30 mg/kg single, 24 h).
For C[C@@H]1NC(=O)[C@H](CC(N)=O)NC(=O)[C@H](Cc2ccccc2)NC(=O)c2cc3ccccc3cc2NC(=O)[C@H](CCCNC(=N)N)NC(=O)[C@@H]2CCCN2C(=O)[C@H]2CCCN2C(=O)[C@H](Cc2ccccc2)NC1=O, the antagonist activity was greater than 100 µM (Melanocortin receptor 3 (Mus musculus, UniProt P33033); antagonist, cAMP β-galactosidase reporter; no activity up to, added: MTII).
With CN1CCC=C(c2cc(F)cc3[nH]ccc23)C1 the Emax was 29% (5-hydroxytryptamine receptor 2B (HTR2B, Homo sapiens, UniProt P41595); β-arrestin recruitment, agonist).
Cc1ccc(C(=O)Nc2ccc(CP(=O)(O)O)cc2CP(=O)(O)O)cc1NC(=O)c1cccc(NC(=O)Nc2cccc(C(=O)Nc3cc(C(=O)Nc4ccc(CP(=O)(O)O)cc4CP(=O)(O)O)ccc3C)c2)c1 gave a Km of 330 ± 40 µM (Coagulation factor XI (F11, Homo sapiens, UniProt P03951); enzyme activity, inhibitor; 10 µM, added: S-2366 substrate).
The -TΔS of CC[C@H](C)[C@H](NC(=O)[C@H](CCCNC(=N)N)NC(=O)[C@H](CCCNC(=N)N)NC(=O)[C@H](C)NC(=O)[C@H](CC(C)C)NC(=O)[C@H](CCCNC(=N)N)NC(=O)[C@H](C)NC(=O)[C@H](Cc1c[nH]c2ccccc12)NC(=O)[C@H](CCCCN)NC(=O)[C@H](CCC(=O)O)NC(C)=O)C(=O)N[C@@H](C)C(N)=O is reported as 2.2 ± 0.9 kcal/mol (Histone chaperone ASF1A; isothermal titration calorimetry; pH 7.5, 20 °C).
For CC(=O)N[C@H]1NC[C@H](C(=O)O)[C@H](O)[C@@H]1O, “released sialic acid” read 387 µmol (Sialidase-2 (Homo sapiens, UniProt Q9Y3R4); α2,3-sialyllactose hydrolysis; 600 µM, 1 h, pH 6.0, added: α2,3-sialyllactose).
The Km of O=C1c2ccc(O)cc2OC2c3cc(-c4coc5cc(O)ccc5c4=O)ccc3OC12c1ccc(O)cc1 (stereo not drawn) is reported as 428 ± 23 µM (laccase (Trametes versicolor); substrate; product formation).
C[C@]12CC[C@H]3[C@@H](CCC4=CC(=O)CC[C@@]43C)[C@@H]1CC[C@@H]2C(=O)CO: “maximal absorbance change” 0.096 (Cytochrome P450 11B2, mitochondrial (CYP11B2, Homo sapiens, UniProt P19099); binding, spectral titration; CYP11B2 1 µM, added: adrenodoxin 40-fold).
With O=C(COCCCCc1ccccc1)N[C@@H](Cc1cn(CCNC(=O)c2ccc(S[C@@H]3O[C@H](CO)[C@H](O)[C@H](O)[C@H]3O)cc2)nn1)C(=O)NCCO the −TΔS was 3.97 ± 0.239 kcal/mol (lecA; binding, isothermal titration calorimetry; 25 °C).
With CC(=O)N1CCN(S(=O)(=O)c2ccc(C=O)cc2)CC1 the stabilisation factor was 3 (YWHAG/RELA (Homo sapiens, UniProt P61981+Q04206); 14-3-3/p65 binding stabilisation, fluorescence anisotropy; 1 mM, added: FITC-labelled bivalent p65 peptide; baseline: DMSO control).
For COC(=O)C1=Cc2ccccc2S1(=O)=O, “ubiquitin charging to E2” read “no effect” (Ubiquitin-conjugating enzyme E2 D2 (UBE2D2, Homo sapiens, UniProt P62837); 10 µM, 30 min, 37 °C).
For CC[C@H](C)[C@H](NC(=O)[C@@H]1CSSC[C@H](NC(=O)[C@@H](NC(C)=O)[C@@H](C)CC)C(=O)N[C@@H](C(C)C)C(=O)N[C@@H](Cc2cn(C)c3ccccc23)C(=O)N[C@@H](CCC(N)=O)C(=O)N[C@@H](CC(=O)O)C(=O)N[C@@H](Cc2c[nH]c3ccccc23)C(=O)NCC(=O)N[C@@H](C)C(=O)N[C@@H](Cc2c[nH]cn2)C(=O)N[C@@H](CCCNC(=N)N)C(=O)N1)C(N)=O, “relative dissociation rate constant” read 1 (Complement C3, C3b fragment (Homo sapiens, UniProt P01024); SPR; 25 °C; baseline: [Trp(Me)4]-Ac-compstatin).
CC[C@H](C)[C@H](NC(C)=O)C(=O)N[C@H]1CSSC[C@@H](C(=O)N[C@H](C(N)=O)[C@@H](C)O)NC(=O)[C@H](CCCNC(=N)N)NC(=O)[C@H](Cc2c[nH]cn2)NC(=O)[C@H](C)NC(=O)CNC(=O)[C@H](Cc2c[nH]c3ccccc23)NC(=O)[C@H](CC(=O)O)NC(=O)[C@H](CCC(N)=O)NC(=O)[C@H](Cc2ccc(O)cc2)NC(=O)[C@H](C(C)C)NC1=O has a -TΔΔS of -1.6 kcal/mol (Complement C3; isothermal titration calorimetry; baseline: 1-methyltryptophan reference).
The uptake reduction of CC(C)(C)NC(=O)[C@@H]1C[C@@H]2CCCC[C@@H]2CN1C[C@@H](OC(=O)CCC(=O)OC[C@H](O)[C@H]1OC(=O)C(O)=C1O)[C@H](Cc1ccccc1)NC(=O)[C@H](CC(N)=O)NC(=O)c1ccc2ccccc2n1 is reported as 27% (Sodium-dependent vitamin C transporter (Canis lupus familiaris, UniProt A8CX01); substrate; MDCK-MDR1; 25 µM, 60 min, added: ascorbic acid 5 mM; baseline: without ascorbic acid).
For CC(/C=C/C(=O)NO)=C\[C@@H](C)C(=O)c1ccc(N(C)C)cc1, “temperature where ΔG equals ΔH” read 295 K (Histone deacetylase 8 (HDAC8, Homo sapiens, UniProt Q9BY41); temperature-dependent ITC).
Oc1ccc(CCC(O)CC(O)CCc2ccc(O)cc2)cc1 (stereo not drawn) has an inhibition of 33.2 ± 0.6% (Amine oxidase [flavin-containing] A (Maoa, Rattus norvegicus, UniProt P21396); enzyme activity, inhibitor; 100 µg/mL, added: serotonin substrate).
Under 2'3'-cGAMP uptake, Nc1ncnc2c1ncn2[C@@H]1O[C@@H]2COP(=O)(O)O[C@H]3[C@@H](O)[C@H](n4cnc5c(N)ncnc54)O[C@@H]3COP(=O)(O)O[C@H]2[C@H]1O is recorded as “inhibited” (Reduced folate transporter (SLC19A1, Homo sapiens, UniProt P41440); inhibitor; THP-1; 100 µM, 1 h).
O=C(Nc1ccc(C(=O)Nc2ccc(C(=O)Nc3ccc(S(=O)(=O)O)c4cc(S(=O)(=O)O)cc(S(=O)(=O)O)c34)cc2)cc1)Nc1ccc(C(=O)Nc2ccc(C(=O)Nc3ccc(S(=O)(=O)O)c4cc(S(=O)(=O)O)cc(S(=O)(=O)O)c34)cc2)cc1 has a Vmax of 21.5 ± 1.72 mAU/min (Neutrophil elastase (ELANE, Homo sapiens, UniProt P08246); substrate S-1384 hydrolysis; pH 7.4, 37 °C, enzyme 300 nM).
The fluorescence quenching of CC1=[N+]2N=C(c3ccccc3)[O][Pd-2]2([Cl])[O+]=C2Oc3ccccc3C=C21 (stereo not drawn) is reported as 61.5% (yeast tRNA; ethidium bromide displacement).
The ΔG of OC[C@H]1O[C@@H](Oc2ccc(-c3cn([C@H]4[C@H](O)[C@@H](O)[C@H](c5cn([C@H]6[C@H](O)[C@@H](O)[C@H](n7cc(-c8ccc(O[C@@H]9O[C@H](CO)[C@H](O)[C@H](O)[C@H]9O)cc8)nn7)O[C@@H]6CO)nn5)O[C@@H]4CO)nn3)cc2)[C@H](O)[C@@H](O)[C@H]1O is reported as -9.6 ± 0.1 kcal/mol (lecA; isothermal titration calorimetry; 25 °C).
Under “specific binding ratio”, [3H]C([3H])([3H])c1cnccc1CN1C[C@@H](c2cc(F)c(F)c(F)c2)CC1=O is recorded as roughly 38 fold (Synaptic vesicle glycoprotein 2A (SV2A, Homo sapiens, UniProt Q7L0J3); radioligand binding; human Alzheimer disease, frontal cortex; baseline: P2 fraction over homogenate).
Under “ΔG of binding”, CC[C@H](C)[C@H](NC(C)=O)C(=O)N[C@H]1CSSC[C@@H](C(=O)N(C)[C@H](C(N)=O)[C@@H](C)CC)NC(=O)[C@H](CCCNC(=N)N)NC(=O)[C@H](Cc2c[nH]cn2)NC(=O)[C@H](C)NC(=O)CN(C)C(=O)[C@H](Cc2c[nH]c3ccccc23)NC(=O)[C@H](CC(=O)O)NC(=O)[C@H](CCC(N)=O)NC(=O)[C@H](Cc2cn(C)c3ccccc23)NC(=O)[C@H](C(C)C)NC1=O is recorded as -11.4 kcal/mol (Complement C3; ITC; concentration not given).
c1ccc2c(NCCCCCCCCCCNc3ccnc4ccccc34)ccnc2c1 gave an affinity increase of 1.5 fold (Alpha-2A adrenergic receptor (ADRA2A, Homo sapiens, UniProt P08913, N108A); baseline: N93A over wild type).
For CC[C@H](C)[C@H](NC(=O)[C@H](CCCNC(=N)N)NC(=O)[C@H](CCCNC(=N)N)NC(=O)[C@H](C)NC(=O)[C@H](CC(C)C)NC(=O)[C@H](CCCNC(=N)N)NC(=O)[C@H](C)NC(=O)[C@H](Cc1c[nH]c2ccccc12)NC(=O)[C@H](CCCCN)NC(=O)[C@H](CCC(=O)O)NC(C)=O)C(=O)N[C@@H](C)C(=O)NCC(N)=O, the -TΔS was 2.2 ± 0.6 kcal/mol (Histone chaperone ASF1A; isothermal titration calorimetry; pH 7.5, 20 °C).
For NC(=O)C[C@@H]1NC(=O)[C@H](Cc2ccc(O)cc2)NC(=O)CNC(=O)CNC(=O)[C@H](CCC(=O)O)NC(=O)[C@H](CCC(=O)O)NC(=O)[C@H](Cc2ccccc2)NC(=O)[C@@H]2CCCN2C1=O, “affinity improvement over linear peptide” read 4 fold (EH domain-containing protein 1, EH domain (Homo sapiens, UniProt Q9H4M9); binding, isothermal titration calorimetry; all salt conditions).
